Measured values pooled from the literature.
Every numbered part comes from another study and shows a few of its results, in no order. Several values in a cell are separate wells, animals, samples, runs or records.
UniProt P23458, sequence (whole entry, looked up): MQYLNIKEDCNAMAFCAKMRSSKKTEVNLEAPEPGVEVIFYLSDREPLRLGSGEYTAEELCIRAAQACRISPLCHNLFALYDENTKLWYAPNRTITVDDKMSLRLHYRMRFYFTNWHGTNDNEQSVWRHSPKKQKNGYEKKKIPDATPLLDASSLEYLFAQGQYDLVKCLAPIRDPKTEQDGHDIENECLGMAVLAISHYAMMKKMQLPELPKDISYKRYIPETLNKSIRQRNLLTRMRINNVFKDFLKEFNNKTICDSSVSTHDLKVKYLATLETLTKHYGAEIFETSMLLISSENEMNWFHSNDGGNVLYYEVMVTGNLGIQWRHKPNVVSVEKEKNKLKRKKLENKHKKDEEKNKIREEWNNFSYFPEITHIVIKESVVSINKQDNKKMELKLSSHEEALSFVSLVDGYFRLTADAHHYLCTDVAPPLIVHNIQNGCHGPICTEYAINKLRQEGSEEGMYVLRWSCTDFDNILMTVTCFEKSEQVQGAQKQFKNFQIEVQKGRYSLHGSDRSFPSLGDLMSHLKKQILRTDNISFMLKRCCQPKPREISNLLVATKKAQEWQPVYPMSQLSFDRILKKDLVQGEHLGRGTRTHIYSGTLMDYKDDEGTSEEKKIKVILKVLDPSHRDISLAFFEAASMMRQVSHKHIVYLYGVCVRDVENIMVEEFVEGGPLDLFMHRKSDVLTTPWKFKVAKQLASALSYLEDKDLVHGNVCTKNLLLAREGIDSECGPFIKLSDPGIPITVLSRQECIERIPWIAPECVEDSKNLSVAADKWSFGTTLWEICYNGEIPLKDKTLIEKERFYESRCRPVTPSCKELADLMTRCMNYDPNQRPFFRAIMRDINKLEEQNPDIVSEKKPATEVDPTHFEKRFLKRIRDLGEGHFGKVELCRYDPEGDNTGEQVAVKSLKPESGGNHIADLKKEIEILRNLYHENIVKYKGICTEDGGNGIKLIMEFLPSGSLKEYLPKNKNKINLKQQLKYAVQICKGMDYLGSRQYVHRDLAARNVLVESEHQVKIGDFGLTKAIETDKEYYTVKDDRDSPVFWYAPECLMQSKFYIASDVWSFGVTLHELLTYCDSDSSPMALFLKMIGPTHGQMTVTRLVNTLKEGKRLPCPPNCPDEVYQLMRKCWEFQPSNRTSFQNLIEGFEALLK
UniProt O00329, sequence (whole entry, looked up): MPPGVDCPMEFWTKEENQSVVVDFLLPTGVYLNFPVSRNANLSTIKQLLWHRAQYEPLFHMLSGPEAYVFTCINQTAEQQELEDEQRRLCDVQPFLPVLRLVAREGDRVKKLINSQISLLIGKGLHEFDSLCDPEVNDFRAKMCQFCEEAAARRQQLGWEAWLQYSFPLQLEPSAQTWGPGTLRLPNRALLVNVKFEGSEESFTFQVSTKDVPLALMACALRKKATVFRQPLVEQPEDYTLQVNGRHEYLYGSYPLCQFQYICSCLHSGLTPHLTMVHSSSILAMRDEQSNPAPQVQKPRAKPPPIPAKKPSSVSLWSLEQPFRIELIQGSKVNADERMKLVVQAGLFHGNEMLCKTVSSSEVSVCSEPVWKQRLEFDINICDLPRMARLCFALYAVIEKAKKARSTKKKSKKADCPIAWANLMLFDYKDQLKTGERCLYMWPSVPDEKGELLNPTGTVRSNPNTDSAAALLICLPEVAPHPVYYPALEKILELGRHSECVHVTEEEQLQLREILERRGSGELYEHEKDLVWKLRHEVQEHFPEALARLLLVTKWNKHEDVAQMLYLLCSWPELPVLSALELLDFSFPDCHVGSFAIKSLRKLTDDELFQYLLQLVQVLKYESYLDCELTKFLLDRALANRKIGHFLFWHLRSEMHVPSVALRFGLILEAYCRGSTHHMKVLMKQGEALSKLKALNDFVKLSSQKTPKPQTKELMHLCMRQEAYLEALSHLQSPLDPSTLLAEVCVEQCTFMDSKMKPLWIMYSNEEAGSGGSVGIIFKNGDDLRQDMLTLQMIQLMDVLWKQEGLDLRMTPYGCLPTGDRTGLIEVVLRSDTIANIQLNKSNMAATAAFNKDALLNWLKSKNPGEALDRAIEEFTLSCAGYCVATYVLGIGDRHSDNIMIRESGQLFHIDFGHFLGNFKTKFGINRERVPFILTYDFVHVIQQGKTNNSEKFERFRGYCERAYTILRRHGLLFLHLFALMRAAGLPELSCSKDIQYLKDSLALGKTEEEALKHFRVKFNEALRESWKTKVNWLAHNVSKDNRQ
UniProt O75582, sequence (whole entry, looked up): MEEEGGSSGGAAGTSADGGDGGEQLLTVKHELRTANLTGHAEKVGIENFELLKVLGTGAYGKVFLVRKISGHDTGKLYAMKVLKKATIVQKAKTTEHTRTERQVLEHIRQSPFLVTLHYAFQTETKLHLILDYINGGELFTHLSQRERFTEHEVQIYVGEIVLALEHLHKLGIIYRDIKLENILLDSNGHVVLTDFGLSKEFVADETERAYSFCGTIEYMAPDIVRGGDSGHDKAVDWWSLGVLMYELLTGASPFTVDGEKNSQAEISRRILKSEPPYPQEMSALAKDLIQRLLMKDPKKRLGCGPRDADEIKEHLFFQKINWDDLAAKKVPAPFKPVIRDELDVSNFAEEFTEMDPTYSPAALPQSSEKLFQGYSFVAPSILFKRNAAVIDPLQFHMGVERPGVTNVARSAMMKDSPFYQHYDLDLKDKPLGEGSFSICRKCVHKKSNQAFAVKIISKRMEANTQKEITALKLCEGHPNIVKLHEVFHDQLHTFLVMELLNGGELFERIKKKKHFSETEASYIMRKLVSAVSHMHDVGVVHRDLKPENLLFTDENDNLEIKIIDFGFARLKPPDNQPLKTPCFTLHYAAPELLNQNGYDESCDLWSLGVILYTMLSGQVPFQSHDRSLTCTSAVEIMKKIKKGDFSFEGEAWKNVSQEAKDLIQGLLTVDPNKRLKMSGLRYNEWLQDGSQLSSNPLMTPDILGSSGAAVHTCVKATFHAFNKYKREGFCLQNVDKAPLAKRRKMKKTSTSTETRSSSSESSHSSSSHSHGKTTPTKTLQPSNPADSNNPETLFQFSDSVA
UniProt Q00532, sequence (whole entry, looked up): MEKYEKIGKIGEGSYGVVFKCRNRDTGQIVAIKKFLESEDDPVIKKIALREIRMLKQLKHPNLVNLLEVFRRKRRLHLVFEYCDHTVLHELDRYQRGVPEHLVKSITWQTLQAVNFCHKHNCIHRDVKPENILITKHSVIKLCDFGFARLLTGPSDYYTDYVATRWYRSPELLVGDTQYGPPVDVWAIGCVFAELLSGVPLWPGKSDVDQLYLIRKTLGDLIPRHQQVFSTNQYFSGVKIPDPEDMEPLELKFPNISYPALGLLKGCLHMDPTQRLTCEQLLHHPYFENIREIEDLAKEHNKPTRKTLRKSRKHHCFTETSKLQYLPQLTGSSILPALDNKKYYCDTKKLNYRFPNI
UniProt Q9H2G2, sequence (whole entry, looked up): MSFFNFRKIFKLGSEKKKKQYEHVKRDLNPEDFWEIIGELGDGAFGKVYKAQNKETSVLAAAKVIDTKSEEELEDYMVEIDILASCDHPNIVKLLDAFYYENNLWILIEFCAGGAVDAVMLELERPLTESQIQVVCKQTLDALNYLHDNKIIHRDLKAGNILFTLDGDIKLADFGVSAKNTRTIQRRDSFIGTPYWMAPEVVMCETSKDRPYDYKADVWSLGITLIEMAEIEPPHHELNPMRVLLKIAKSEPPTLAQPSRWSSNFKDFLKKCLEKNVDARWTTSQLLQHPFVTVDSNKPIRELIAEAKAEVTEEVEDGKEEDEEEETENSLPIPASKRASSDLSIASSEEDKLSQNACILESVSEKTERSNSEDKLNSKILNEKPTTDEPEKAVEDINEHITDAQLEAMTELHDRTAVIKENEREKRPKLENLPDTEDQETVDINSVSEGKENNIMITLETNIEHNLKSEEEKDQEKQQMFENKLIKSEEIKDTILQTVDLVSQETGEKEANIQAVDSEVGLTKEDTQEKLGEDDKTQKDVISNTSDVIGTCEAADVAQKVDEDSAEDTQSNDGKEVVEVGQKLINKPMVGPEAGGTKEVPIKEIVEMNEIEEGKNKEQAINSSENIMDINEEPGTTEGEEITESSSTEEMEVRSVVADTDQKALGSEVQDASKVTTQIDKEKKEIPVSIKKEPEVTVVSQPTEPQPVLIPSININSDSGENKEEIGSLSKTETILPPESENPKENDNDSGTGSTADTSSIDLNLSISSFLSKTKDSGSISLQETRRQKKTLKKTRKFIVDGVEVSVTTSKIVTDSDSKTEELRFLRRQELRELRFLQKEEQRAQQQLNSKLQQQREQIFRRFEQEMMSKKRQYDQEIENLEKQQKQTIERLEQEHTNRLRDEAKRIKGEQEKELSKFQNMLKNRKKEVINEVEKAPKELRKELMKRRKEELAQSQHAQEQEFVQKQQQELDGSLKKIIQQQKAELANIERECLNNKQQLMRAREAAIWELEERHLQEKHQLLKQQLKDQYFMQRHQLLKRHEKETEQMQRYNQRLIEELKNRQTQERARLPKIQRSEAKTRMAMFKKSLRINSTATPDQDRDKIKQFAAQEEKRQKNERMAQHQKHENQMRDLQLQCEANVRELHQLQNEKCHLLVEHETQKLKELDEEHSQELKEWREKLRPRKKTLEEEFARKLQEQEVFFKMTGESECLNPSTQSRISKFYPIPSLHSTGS
UniProt P53779, sequence (whole entry, looked up): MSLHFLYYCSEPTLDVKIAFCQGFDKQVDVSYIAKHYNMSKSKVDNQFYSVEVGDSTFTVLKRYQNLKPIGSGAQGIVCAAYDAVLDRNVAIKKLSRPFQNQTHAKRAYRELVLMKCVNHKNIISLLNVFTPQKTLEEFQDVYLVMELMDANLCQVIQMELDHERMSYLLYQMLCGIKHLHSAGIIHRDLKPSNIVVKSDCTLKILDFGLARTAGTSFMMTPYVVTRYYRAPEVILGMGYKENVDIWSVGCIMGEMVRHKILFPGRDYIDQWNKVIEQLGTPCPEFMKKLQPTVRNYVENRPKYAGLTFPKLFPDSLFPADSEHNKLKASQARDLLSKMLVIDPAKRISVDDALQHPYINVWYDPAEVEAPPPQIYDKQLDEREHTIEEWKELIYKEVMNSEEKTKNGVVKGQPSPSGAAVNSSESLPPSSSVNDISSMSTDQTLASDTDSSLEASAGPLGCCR

Study 1 — concentration: 0.5 µM; endpoint: remaining activity
Compound: Cc1nc(Nc2ncc(C(=O)Nc3c(C)cccc3Cl)s2)cc(N2CCN(CCO)CC2)n1
target = PRKD1 (Homo sapiens, UniProt Q15139); read-out = enzyme activity; mode = inhibitor; baseline = control; value = 98.9%
target = Aurora kinase A (AURKA, Homo sapiens, UniProt O14965); read-out = enzyme activity; mode = inhibitor; baseline = control; value = 93.2%
target = GRK5 (Homo sapiens, UniProt P34947); read-out = enzyme activity; mode = inhibitor; baseline = control; value = 106%
target = NEK9 (Homo sapiens, UniProt Q8TD19); read-out = enzyme activity; mode = inhibitor; baseline = control; value = 98.3%
target = ROCK2 (Homo sapiens, UniProt O75116); read-out = enzyme activity; mode = inhibitor; baseline = control; value = 90.1%
target = CSNK2A2 (Homo sapiens, UniProt P19784); read-out = enzyme activity; mode = inhibitor; baseline = control; value = 103%
target = CAMK1D (Homo sapiens, UniProt Q8IU85); read-out = enzyme activity; mode = inhibitor; baseline = control; value = 105%
target = Cyclin-dependent kinase 2, with cyclin A (CDK2, Homo sapiens, UniProt P24941); read-out = enzyme activity; mode = inhibitor; baseline = control; value = 92.4%
target = DYRK4 (Homo sapiens, UniProt Q9NR20); read-out = enzyme activity; mode = inhibitor; baseline = control; value = 100%
target = TNK2 (Homo sapiens, UniProt Q07912); read-out = kinase activity; with = ATP 10 µM; baseline = untreated; value = 2.62%
target = BRSK1 (Homo sapiens, UniProt Q8TDC3); read-out = enzyme activity; mode = inhibitor; baseline = control; value = 103%
target = RET (Homo sapiens, UniProt P07949); read-out = enzyme activity; mode = inhibitor; baseline = control; value = 46%
target = CAMK1G (Homo sapiens, UniProt Q96NX5); read-out = enzyme activity; mode = inhibitor; baseline = control; value = 104%
target = ROS1 (Homo sapiens, UniProt P08922); read-out = enzyme activity; mode = inhibitor; baseline = control; value = 88.9%
target = HIPK3 (Homo sapiens, UniProt Q9H422); read-out = enzyme activity; mode = inhibitor; baseline = control; value = 100%
target = SLK (Homo sapiens, UniProt Q9H2G2); read-out = enzyme activity; mode = inhibitor; baseline = control; value = 81.1%
target = PKN2 (Homo sapiens, UniProt Q16513); read-out = enzyme activity; mode = inhibitor; baseline = control; value = 103%
target = PTK2B (Homo sapiens, UniProt Q14289); read-out = enzyme activity; mode = inhibitor; baseline = control; value = 97.7%
target = CDK7 (Homo sapiens, UniProt P50613); read-out = enzyme activity; mode = inhibitor; baseline = control; value = 112%
target = MAP3K2 (Homo sapiens, UniProt Q9Y2U5); read-out = enzyme activity; mode = inhibitor; baseline = control; value = 100%
target = DMPK (Homo sapiens, UniProt Q09013); read-out = enzyme activity; mode = inhibitor; baseline = control; value = 107%
target = NTRK3 (Homo sapiens, UniProt Q16288); read-out = enzyme activity; mode = inhibitor; baseline = control; value = 65.3%
target = MAP3K8 (Homo sapiens, UniProt P41279); read-out = enzyme activity; mode = inhibitor; baseline = control; value = 97.6%
target = MAPK10 (Homo sapiens, UniProt P53779); read-out = enzyme activity; mode = inhibitor; baseline = control; value = 100%

Study 2 — read-out: binding; mode: competitor; technique: NanoBRET; cell line: HEK293; endpoint: normalized BRET
SMILES: CC(=O)N1CCN(c2nc(OC[C@@H]3CCCN3C)nc3c2CCN(c2cccc4cccc(Cl)c24)C3)C[C@@H]1CC#N
KRAS G13D: GTPase KRas (KRAS, Homo sapiens, UniProt P01116, G13D)
KRAS Q61H: GTPase KRas (KRAS, Homo sapiens, UniProt P01116, Q61H)
target = KRAS G13D; concentration = 3.7 µM; value = 28.1% and 20.8% and 26.1%
target = KRAS Q61H; concentration = 11.1 µM; value = 15.4% and 20% and 17.7%
target = KRAS G13D; concentration = 11.1 µM; value = 16.7% and 12% and 10.4%
target = KRAS Q61H; concentration = 3.7 µM; value = 29.7% and 31.3% and 30.1%

Study 3 — technique: LC-MS/MS; item: S-adenosylmethionine; species: human patients; medium: plasma; endpoint: plasma SAM concentration
SMILES: COc1ccc(-c2c(Nc3ccccn3)[nH]c3c(C4=CCCCC4)c(-c4ccccc4)nn3c2=O)cc1
dose = 200 mg BID; time = 1 h; notes = median; value = 12.3 ng/mL
dose = 200 mg BID; time = 6 h; notes = geometric mean; value = 11.2 ng/mL
dose = 200 mg BID; time = 1 h; notes = mean; value = 11 ng/mL
dose = 400 mg QD; time = 4 h; notes = geometric mean; value = 18 ng/mL
dose = 100 mg QD; time = 2 h; notes = median; value = 13.7 ng/mL
dose = 200 mg BID; time = 6 h; notes = median; value = 13.4 ng/mL
dose = 50 mg QD; time = 1 h; notes = median; value = 20.8 ng/mL
dose = 100 mg QD; time = 2 h; notes = geometric mean; value = 17.7 ng/mL

Study 4 — concentration: 0.1 µM; endpoint: remaining binding
SMILES: CC(C)CC(=O)N1CCc2nc(-c3ccc(Br)cc3)nc(N(C)Cc3ccccc3)c2C1
target = Tyrosine-protein kinase JAK1, JH1 (JAK1, Homo sapiens, UniProt P23458); read-out = cell-free assay; technique = competition with immobilised ligand; value = 100%
target = EPHA4 (Homo sapiens, UniProt P54764); read-out = cell-free assay; technique = competition with immobilised ligand; value = 100%
target = GRK2 (Homo sapiens, UniProt P25098); read-out = cell-free assay; technique = competition with immobilised ligand; value = 100%
target = CAMK2B (Homo sapiens, UniProt Q13554); read-out = cell-free assay; technique = competition with immobilised ligand; value = 100%
target = MAP3K11 (Homo sapiens, UniProt Q16584); read-out = cell-free assay; technique = competition with immobilised ligand; value = 100%
target = SIK1 (Homo sapiens, UniProt P57059); technique = competition binding; value = 91%
target = ERBB3 (Homo sapiens, UniProt P21860); read-out = cell-free assay; technique = competition with immobilised ligand; value = 73%
target = CAMKK1 (Homo sapiens, UniProt Q8N5S9); read-out = cell-free assay; technique = competition with immobilised ligand; value = 100%
target = PIK3CD (Homo sapiens, UniProt O00329); read-out = cell-free assay; technique = competition with immobilised ligand; value = 82%
target = CDK18 (Homo sapiens, UniProt Q07002); read-out = cell-free assay; technique = competition with immobilised ligand; value = 100%
target = STK24 (Homo sapiens, UniProt Q9Y6E0); read-out = cell-free assay; technique = competition with immobilised ligand; value = 100%
target = PRKACA (Homo sapiens, UniProt P17612); read-out = cell-free assay; technique = competition with immobilised ligand; value = 89%
target = CDKL1 (Homo sapiens, UniProt Q00532); read-out = cell-free assay; technique = competition with immobilised ligand; value = 63%
target = ULK2 (Homo sapiens, UniProt Q8IYT8); read-out = cell-free assay; technique = competition with immobilised ligand; value = 89%
target = PRKCD (Homo sapiens, UniProt Q05655); read-out = cell-free assay; technique = competition with immobilised ligand; value = 100%
target = STK32A (Homo sapiens, UniProt Q8WU08); read-out = cell-free assay; technique = competition with immobilised ligand; value = 94%
target = BRAF (Homo sapiens, UniProt P15056, V600E); read-out = cell-free assay; technique = competition with immobilised ligand; value = 100%
target = Tyrosine-protein kinase JAK1, JH2 (JAK1, Homo sapiens, UniProt P23458); read-out = cell-free assay; technique = competition with immobilised ligand; value = 71%
target = MAP2K7 (Homo sapiens, UniProt O14733); read-out = cell-free assay; technique = competition with immobilised ligand; value = 79%
target = AKT1 (Homo sapiens, UniProt P31749); read-out = cell-free assay; technique = competition with immobilised ligand; value = 92%
target = Ribosomal protein S6 kinase alpha-5, C-terminal kinase domain (RPS6KA5, Homo sapiens, UniProt O75582); read-out = cell-free assay; technique = competition with immobilised ligand; value = 100%
target = PTK2 (Homo sapiens, UniProt Q05397); read-out = cell-free assay; technique = competition with immobilised ligand; value = 92%
target = MKNK1 (Homo sapiens, UniProt Q9BUB5); read-out = cell-free assay; technique = competition with immobilised ligand; value = 69%
target = Tyrosine-protein kinase ABL1, phosphorylated (ABL1, Homo sapiens, UniProt P00519, F317I); read-out = binding; value = 100%
target = PRKAA2 (Homo sapiens, UniProt P54646); read-out = cell-free assay; technique = competition with immobilised ligand; value = 100%

Repeated from above (study 1):
target = PRKD1 (Homo sapiens, UniProt Q15139); read-out = enzyme activity; mode = inhibitor; baseline = control; value = 98.9%
target = CSNK2A2 (Homo sapiens, UniProt P19784); read-out = enzyme activity; mode = inhibitor; baseline = control; value = 103%
target = CDK7 (Homo sapiens, UniProt P50613); read-out = enzyme activity; mode = inhibitor; baseline = control; value = 112%
target = SLK (Homo sapiens, UniProt Q9H2G2); read-out = enzyme activity; mode = inhibitor; baseline = control; value = 81.1%
target = RET (Homo sapiens, UniProt P07949); read-out = enzyme activity; mode = inhibitor; baseline = control; value = 46%
target = DMPK (Homo sapiens, UniProt Q09013); read-out = enzyme activity; mode = inhibitor; baseline = control; value = 107%
target = CAMK1D (Homo sapiens, UniProt Q8IU85); read-out = enzyme activity; mode = inhibitor; baseline = control; value = 105%
target = PTK2B (Homo sapiens, UniProt Q14289); read-out = enzyme activity; mode = inhibitor; baseline = control; value = 97.7%
target = TNK2 (Homo sapiens, UniProt Q07912); read-out = kinase activity; with = ATP 10 µM; baseline = untreated; value = 2.62%
target = MAP3K2 (Homo sapiens, UniProt Q9Y2U5); read-out = enzyme activity; mode = inhibitor; baseline = control; value = 100%
